{"data": "Assay results of several laboratories", "note": "Numbered parts are unrelated; each lists some results of a single study.", "chain of UniProt P50750 (whole entry, looked up)": "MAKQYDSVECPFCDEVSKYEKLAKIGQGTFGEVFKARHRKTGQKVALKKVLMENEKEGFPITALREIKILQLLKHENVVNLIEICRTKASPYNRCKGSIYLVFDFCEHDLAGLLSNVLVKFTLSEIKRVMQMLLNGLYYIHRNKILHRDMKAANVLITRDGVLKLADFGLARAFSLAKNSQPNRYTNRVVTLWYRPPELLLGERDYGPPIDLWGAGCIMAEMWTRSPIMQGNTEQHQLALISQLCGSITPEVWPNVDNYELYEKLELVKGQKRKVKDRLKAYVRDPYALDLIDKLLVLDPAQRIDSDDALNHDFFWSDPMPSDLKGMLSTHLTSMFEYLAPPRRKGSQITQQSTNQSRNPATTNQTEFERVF"}
{"data": "Series 1", "target": "PABPC1L2, full length, GST fusion (mouse, UniProt A0ABA7IW68)", "technique": "RNAcompete", "molecule type": "RNA", "medium": "in vitro", "concentration": "20 nM", "notes": "7-mer, probes averaged, single round", "baseline": "mean of 7-mers", "direction": "higher = stronger binding", "Target sequence (chain)": "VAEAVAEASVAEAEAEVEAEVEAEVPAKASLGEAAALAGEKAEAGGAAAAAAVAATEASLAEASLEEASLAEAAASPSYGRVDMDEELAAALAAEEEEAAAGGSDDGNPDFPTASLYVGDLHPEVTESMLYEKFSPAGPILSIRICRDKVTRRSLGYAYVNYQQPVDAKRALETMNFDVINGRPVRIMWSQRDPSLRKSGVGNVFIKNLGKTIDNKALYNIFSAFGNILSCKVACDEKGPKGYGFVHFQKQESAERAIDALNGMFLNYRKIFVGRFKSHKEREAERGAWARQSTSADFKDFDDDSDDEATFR"}
{"Oligonucleotide": "CCUAAAG", "7-mer Z-score": -0.0246}
{"Oligonucleotide": "CAUUUGC", "7-mer Z-score": -0.407}
{"Oligonucleotide": "CUUGGCU", "7-mer Z-score": -0.121}
{"Oligonucleotide": "GGAUUAU", "7-mer Z-score": -0.0754}
{"Oligonucleotide": "AGUCAUG", "7-mer Z-score": -0.2}
{"Oligonucleotide": "GACGAUA", "7-mer Z-score": 0.0895}
{"Oligonucleotide": "CAGCACU", "7-mer Z-score": -0.219}
{"Oligonucleotide": "GGUUACG", "7-mer Z-score": -0.104}
{"data": "Series 2", "target": "RNA binding protein fox-1 homolog 2, RRM domain, GST-SBP tag (RBFOX2, Homo sapiens, UniProt O43251-10, residues 100-194)", "technique": "RNA Bind-n-Seq", "molecule type": "RNA", "medium": "in vitro", "concentration": "365 nM", "notes": "natural RNA segment, single round, ends assumed", "baseline": "no-protein control", "direction": "higher = stronger binding", "Residues (chain)": "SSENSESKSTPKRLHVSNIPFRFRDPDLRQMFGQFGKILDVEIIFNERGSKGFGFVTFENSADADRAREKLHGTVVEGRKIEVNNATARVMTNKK"}
{"Oligonucleotide": "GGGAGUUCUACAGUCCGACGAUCUACAGGAUCAUGUUGGCAUUUACUAUCAUGUCUUUAUCAUAAACCAUGUUUGUUUGAGGUAGAAGAAUCACCAUAUAAUUCGUUGCCCAAAUUGGGACUAUUGAGAGAGAUGGAAUUCUCGGGUGCCAA", "RBNS enrichment (R)": 0.418}
{"Oligonucleotide": "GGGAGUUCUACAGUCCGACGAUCGUGGGACCCAGGCGUGGGGGGACCUUUCUGCCCCACAUUCCUGGCAUUCCCCCCAAGUUUAUUUCUACUUUCCAGAAACAAGCCACGGGAAGGGAAGGAACCUGCAGCAGUGGAAUUCUCGGGUGCCAA", "RBNS enrichment (R)": 0.22}
{"Oligonucleotide": "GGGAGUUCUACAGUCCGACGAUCAAAGAAGGGUCUCACGUGGCUGGCCUGGCUCCUCCGUAGACCCCUGUUCUUUUCAACCUCUGCCCACCCGUGCAUGUCAUCACAAACAUUUGCUCUUAAGUUACAAGAGAUGGAAUUCUCGGGUGCCAA", "RBNS enrichment (R)": 1.42}
{"Oligonucleotide": "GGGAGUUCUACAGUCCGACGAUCCACACACACACACACACACACAAUGGGAGUGGGAUUAAGGUUUUCAUAAAUCUCAGCCAAUGGUCUUCAAAGCCUUUACCUGAAGAGACCACACUCCAACACGGAGCUGGUGGAAUUCUCGGGUGCCAA", "RBNS enrichment (R)": 0.819}
{"Oligonucleotide": "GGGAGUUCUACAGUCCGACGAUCUAUAAAUCAGUUAUGUAGUAUCUUUUGUUUUUGUAGCUGAUUCCUUAACUUUCUUGUAUGCCUCUAGUAAUUUCAGAGAUUAAAUAUUGCUUUAAACUGUGAUACUUUGAUGGAAUUCUCGGGUGCCAA", "RBNS enrichment (R)": 0.43}
{"Oligonucleotide": "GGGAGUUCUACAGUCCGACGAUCCUUACUUUCUUCUUAUGUAUACAUAAUUAAAUGAAAAGUCUUCAUAGGAGUUUGACAAAAUGAAUUGUGGUUAUAAAACGAAUUUGCUUUUUUGUUGUUUUGUUUUUCUUUGGAAUUCUCGGGUGCCAA", "RBNS enrichment (R)": 0.629}
{"Oligonucleotide": "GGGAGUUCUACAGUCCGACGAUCGAGUAAUGUUUGUGGCUAUUAAAAUGCAUUAUCAUUAUCCACUUCAAUAGCAUUUUCCUCUGCUUUGAAAUUUCCAGAAAUCAUCUUGGGCCAAGGCAAUGACACAUACAUGGAAUUCUCGGGUGCCAA", "RBNS enrichment (R)": 0.413}
{"Oligonucleotide": "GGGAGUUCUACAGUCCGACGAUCAUAUAUGUGUAAUUCCAGCACUGGGAGGAGGACAAAGGGCAAUCAGGAGUUCAAGGCCAGCCUUAGCUAUAUAGUGAGUUUGAAGCCAGCCUGGGCUACAUGUAACCUUCUGGAAUUCUCGGGUGCCAA", "RBNS enrichment (R)": 0.226}
{"data": "Other studies, line by line"}
{"Substance": "ASNS (Homo sapiens, UniProt P08243)", "tested on": "STXBP2 (Homo sapiens, UniProt Q15833)", "assay": "cross-linking MS", "test system": "cell fractions", "conditions": "together with: DSSO", "quantity": "cross-linked residues", "result": "K244 to T318"}
{"Substance": "Cn1cc(/C=C2\\C(=O)Nc3ccc(S(N)(=O)=O)cc32)c2ccccc21", "tested on": "Cyclin-dependent kinase 9, with cyclin T1 (CDK9, Homo sapiens, UniProt P50750)", "assay": "enzyme activity, inhibitor", "conditions": "0.5 µM", "how to read": "baseline: control", "quantity": "remaining activity", "result": "65%"}
{"Substance": "ATP5PO (Homo sapiens, UniProt P48047)", "tested on": "LCN10 (Homo sapiens, UniProt Q6JVE6)", "assay": "cross-linking MS", "test system": "cell fractions", "conditions": "together with: DSSO", "quantity": "cross-linked residues", "result": "K84 to K71"}
{"Substance": "COPB1 (Homo sapiens, UniProt P53618)", "tested on": "COPA (Homo sapiens, UniProt P53621)", "assay": "cross-linking MS", "test system": "cell fractions", "conditions": "together with: DMTMM", "quantity": "cross-linked residues", "result": "K703 to E679"}
{"note": "Some of these lines once more (other studies, line by line):"}
{"Substance": "Cn1cc(/C=C2\\C(=O)Nc3ccc(S(N)(=O)=O)cc32)c2ccccc21", "tested on": "Cyclin-dependent kinase 9, with cyclin T1 (CDK9, Homo sapiens, UniProt P50750)", "assay": "enzyme activity, inhibitor", "conditions": "0.5 µM", "how to read": "baseline: control", "quantity": "remaining activity", "result": "65%"}
{"Substance": "ATP5PO (Homo sapiens, UniProt P48047)", "tested on": "LCN10 (Homo sapiens, UniProt Q6JVE6)", "assay": "cross-linking MS", "test system": "cell fractions", "conditions": "together with: DSSO", "quantity": "cross-linked residues", "result": "K84 to K71"}
